Published values gathered from unrelated publications.
A part holds a random share of what one study measured. Values joined by “and” are separate records of one study, mostly repeats; a detail may differ. pIC50: −log10 of the molar value.
Sequence of UniProt P08684 (whole entry, looked up): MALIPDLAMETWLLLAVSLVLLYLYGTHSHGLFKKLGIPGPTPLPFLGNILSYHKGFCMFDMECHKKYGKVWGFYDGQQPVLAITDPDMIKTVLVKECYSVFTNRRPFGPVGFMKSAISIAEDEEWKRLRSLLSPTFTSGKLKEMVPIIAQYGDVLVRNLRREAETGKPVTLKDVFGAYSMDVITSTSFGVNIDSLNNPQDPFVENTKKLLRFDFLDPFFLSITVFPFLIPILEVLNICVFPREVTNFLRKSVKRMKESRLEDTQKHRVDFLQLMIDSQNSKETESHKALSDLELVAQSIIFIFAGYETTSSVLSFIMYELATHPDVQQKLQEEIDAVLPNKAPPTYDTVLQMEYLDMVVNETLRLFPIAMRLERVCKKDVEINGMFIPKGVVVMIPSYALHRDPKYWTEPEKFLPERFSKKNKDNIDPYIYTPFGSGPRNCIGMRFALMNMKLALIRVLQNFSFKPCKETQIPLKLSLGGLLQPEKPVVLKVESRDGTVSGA

Series 1
Structure (SMILES): CC(C)(C)n1nc(-c2ccc(Cl)cc2)c2c(N)ncnc21
Target: Receptor-interacting serine/threonine-protein kinase 3 (RIPK3, Homo sapiens, UniProt Q9Y572)
Sequence of UniProt Q9Y572 (whole entry, looked up): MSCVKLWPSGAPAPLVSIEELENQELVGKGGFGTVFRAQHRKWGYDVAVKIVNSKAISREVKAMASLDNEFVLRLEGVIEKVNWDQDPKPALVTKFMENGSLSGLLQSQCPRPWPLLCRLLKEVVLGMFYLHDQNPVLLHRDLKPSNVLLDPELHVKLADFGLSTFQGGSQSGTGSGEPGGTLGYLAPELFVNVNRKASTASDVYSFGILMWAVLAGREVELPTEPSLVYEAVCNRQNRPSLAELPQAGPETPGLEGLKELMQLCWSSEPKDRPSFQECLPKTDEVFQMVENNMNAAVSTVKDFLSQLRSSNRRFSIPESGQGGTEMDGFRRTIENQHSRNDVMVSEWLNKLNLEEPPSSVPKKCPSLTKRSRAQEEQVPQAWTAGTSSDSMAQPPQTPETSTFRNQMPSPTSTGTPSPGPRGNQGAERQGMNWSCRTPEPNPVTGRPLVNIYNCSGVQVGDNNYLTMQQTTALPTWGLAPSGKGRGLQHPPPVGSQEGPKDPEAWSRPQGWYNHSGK
Observed: kinase activity
Action: inhibitor
Time: 1 h
Endpoint: inhibition
assay = ADP-Glo; conditions = 31.25 nM; value = 26.3%
assay = ADP-Glo; conditions = 62.5 nM; value = 45.3%
assay = ADP-Glo kinase; conditions = 1000 nM; value = 94.8%
assay = ADP-Glo; conditions = 500 nM; value = 89.7%
assay = ADP-Glo; conditions = 125 nM; value = 63.9%

Series 2
SMILES: CC(C)C[C@@H]1NC(=O)[C@@H](N(C)C(=O)[C@@H](NC(=O)[C@@H]2C[C@@H](F)CN2C(=O)C2(C(F)(F)F)CC(F)(F)C2)C2CC2)CCCCCCCN(C)C(=O)[C@H](Cc2cc(Cl)cnc2OC2CC2)N(C)C1=O
Route: oral
Endpoint: tumour volume
system = NSG mice, sample B SCLC PDX; conditions = 100 mg/kg twice daily, day 29; value = 243 mm3 and 249 mm3 and 319 mm3 and 416 mm3 and 390 mm3
system = NSG mice, sample B SCLC PDX; conditions = 100 mg/kg twice daily, day 19; value = 229 mm3 and 226 mm3 and 231 mm3 and 300 mm3
system = NSG mice, sample B SCLC PDX; conditions = 100 mg/kg twice daily, day 15; value = 210 mm3 and 233 mm3 and 211 mm3 and 235 mm3 and 208 mm3
system = NSG mice, sample B SCLC PDX; conditions = 100 mg/kg twice daily, day 1; value = 213 mm3 and 180 mm3 and 173 mm3 and 176 mm3 and 168 mm3
system = NSG mice, sample B SCLC PDX; conditions = 100 mg/kg twice daily, day 8; value = 286 mm3 and 215 mm3 and 185 mm3 and 205 mm3 and 181 mm3
system = mouse, sample A SCLC PDX; conditions = 100 mg/kg three times daily, day 21; value = 373 mm3 and 199 mm3 and 192 mm3 and 306 mm3

Series 3
Cell line: P493B lymphoma cells
Sample: human plasma
Tested at: concentration not given
Notes: plasma fraction of partition
Endpoint: DON concentration
Structure (SMILES) = [2H]C([2H])([2H])OC(=O)[C@H](CCC(=O)C=[N+]=[N-])NC(=O)[C@H](Cc1c[nH]c2ccccc12)NC(C)=O; value = 0.06 nmol/mL
Structure (SMILES) = COCCOCCOC(=O)[C@H](CCC(=O)C=[N+]=[N-])NC(=O)[C@H](Cc1c[nH]c2ccccc12)NC(=O)CN(C)C; value = 0.18 nmol/mL
Structure (SMILES) = CC(C)OC(=O)[C@H](CCC(=O)C=[N+]=[N-])NC(=O)[C@H](Cc1c[nH]c2ccccc12)NC(=O)CN1CCN(C)CC1; value = 0.03 nmol/mL
Structure (SMILES) = CC(=O)N[C@@H](Cc1c[nH]c2ccccc12)C(=O)N[C@@H](CCC(=O)C=[N+]=[N-])C(=O)OC(CF)CF; value = 0.21 nmol/mL

Further values, each from its own experiment
Structure (SMILES) = Cn1cc(-c2cccc(CN3CCC4(CC3)COc3c4ccc4c3CN([C@H]3CCC(=O)NC3=O)C4=O)c2)cn1; target = Cytochrome P450 3A4 (CYP3A4, Homo sapiens, UniProt P08684); assay = enzyme activity, inhibitor; conditions = midazolam probe; endpoint = pIC50; value = < 5.00

For quick reference, copied from above (series 3):
Structure (SMILES) = COCCOCCOC(=O)[C@H](CCC(=O)C=[N+]=[N-])NC(=O)[C@H](Cc1c[nH]c2ccccc12)NC(=O)CN(C)C; value = 0.18 nmol/mL
